Published values pooled from the literature.
Parts stem from different laboratories: compare values within a part only. Substitutions count along the parent as printed.

Sample 1 — technique: RNA Bind-n-Seq; molecule type: RNA; matrix: in vitro; concentration: not given; relative to: input RNA pool; direction: higher = stronger binding; quantity: bound/input enrichment
Target: RING finger protein unkempt homolog, zinc fingers 1-6, GST-SBP tag (UNK, Homo sapiens, UniProt Q9C0B0, residues 30-357)
Chain of UniProt Q9C0B0 (30-357, looked up): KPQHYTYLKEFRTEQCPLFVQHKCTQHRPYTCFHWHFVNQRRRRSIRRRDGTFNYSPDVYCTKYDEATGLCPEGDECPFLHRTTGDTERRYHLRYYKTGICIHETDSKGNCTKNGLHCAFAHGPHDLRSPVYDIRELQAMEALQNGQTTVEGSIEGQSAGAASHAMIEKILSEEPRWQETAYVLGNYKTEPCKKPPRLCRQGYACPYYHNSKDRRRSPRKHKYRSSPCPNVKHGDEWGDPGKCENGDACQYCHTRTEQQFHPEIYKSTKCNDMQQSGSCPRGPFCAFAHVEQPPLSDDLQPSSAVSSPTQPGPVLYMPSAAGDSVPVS
Notes: RNA with constant flanks, human and mouse sites, ends assumed
Constant ends, left off below: GGGAGUUCUACAGUCCGACGAUC … CAACAGAGGAUUGAGCAUCA
AGUUUAUCUGGAUGUUAUCAGAUCACAGACCAUGGUCUCAGGGUUUUGACUCUGGGAGGAGGGCUGCCUUAUUUGGAGCACCUUAAUCUCUCUGGUUGUCUUACUAUAACUGGUGCAGGC: 0.12 ratio
UGAGAGAUCCUAAUAAUCAACUUCACGUAAUUAAAAAUUUGAAGAUAGCAGUAAGCAACAUUGUCACCCAGCCACCUCAGCCUGGAGCCAUCCGGAAGCUUUUGAAUGAUGUUGUUUCUG: 0.25 ratio
AGCUCUCCCUGUGCUAACUGCCUGCACCUUGGACAGAGCGGGUGCGCAAAUCAGAAGGAUUAGUUGGGACCUGCCUUGGCGACCCCAUGGCAUCCCCCAGAACCGUAACUAUUGUGGCCC: 0.116 ratio
UUACAAGUAUUUUAAUUUAAGUUCAGUGAACUUUUUUGUAGCUGGGUUAAAUCUUUUUAUUUUAGUAUGGCCUUAUGGCAAAGAACACUGUAUUAUUUUAAUAAUCACACAAUUGUGACG: 2.76 ratio
AUGAUGGAAUUGCUUUUUCUUUUGUCUUGUGAUUUUUUUUUUUGAAGUGAAAUUUAACUUUUUGUGCAAGUAGUACUAUUAUACCCAUCUUCAGUGUCUUACUUGUACUGUAUCACAUUC: 0.496 ratio
AGAACGGACAUUUCAGUACCAGGACUCUCUUCCGUCAUUGCCUGUUCCUGCACUUGAAGAAUCAUUAAAAAAAUACCUUGAAUCAGUGAAACCAUUCGCAAAUGAAGACGAGUAUAAGAA: 0.171 ratio
GAAUUUGGACAAGUUUUGGCUUCCUGUUCUUUUGACCGAACAGCAGCUGUAUGGGAAGAAAUAGUGGGAGAAUCAAACGAUAAACUUCGAGGACAGAGUCACUGGGUGAAGAGGACAACU: 0.154 ratio
GCCCAGGGAUUCCAGGUUGAAUACAAAGAUUUUCCCAAGAACAACAAGAACGAGUGUGUAUCUCUCAUCAACUGCUCCUCACAGCCGCCUCUCGUCAGUCAUGGCAUCGGCAAGGAUGUG: 0.165 ratio

Sample 2 — technique: RNA Bind-n-Seq; molecule type: RNA; matrix: in vitro; concentration: 1 µM; notes: whole 134-nt RNA, ends assumed; together with: 150 mM KCl; relative to: input library; direction: higher = stronger binding; quantity: log2 enrichment
Target: Ras GTPase-activating protein-binding protein 1, C-terminal RGG region (G3BP1, Homo sapiens, UniProt Q13283)
Chain of UniProt Q13283 (whole entry, looked up): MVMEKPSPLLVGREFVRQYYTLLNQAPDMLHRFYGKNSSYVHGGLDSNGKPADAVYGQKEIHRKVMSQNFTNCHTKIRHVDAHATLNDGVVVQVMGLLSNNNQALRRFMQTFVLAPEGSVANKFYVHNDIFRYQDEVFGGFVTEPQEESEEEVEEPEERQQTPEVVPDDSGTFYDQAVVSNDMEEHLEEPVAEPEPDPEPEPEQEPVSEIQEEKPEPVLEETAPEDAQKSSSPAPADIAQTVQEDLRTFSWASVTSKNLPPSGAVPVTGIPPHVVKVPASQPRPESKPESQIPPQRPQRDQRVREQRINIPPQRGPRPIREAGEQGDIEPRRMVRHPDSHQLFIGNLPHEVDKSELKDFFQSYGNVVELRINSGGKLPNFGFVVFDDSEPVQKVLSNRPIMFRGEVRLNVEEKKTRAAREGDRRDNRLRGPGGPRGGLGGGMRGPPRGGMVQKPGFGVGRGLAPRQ
Constant ends, left off below: GGGAGUUCUACAGUCCGACGAUC … UGGAAUUCUCGGGUGUCAAGG
ACCAUGCAGGUGGGCAUCUUUGGGAAGUGGGGCAAGGGGGGGAUAGGGAGGGCGGUAACACUUUGGGAACAGGUGGUCCCAGGUCGUUUC: 2.23
CUGUGCUACACAUCGUAUGUACCGAAUCGGGGUUUUUUUGGGGAAAAAAAGGGGUUUGGGGAAAGUAUUAUGUUACGCCGUUCGGAUCUG: -0.521
CACAGACAACACGCACCCACACAGACAUAGAGGGAAGGGGUUGGGAUGGGGACAGGGUGCACAGCAGGGCGGGGUAGGACCCCAGCCCCU: -1.53e-05
UGGGAGGUGGAUUUUGUUUAUUUUUUUAGCUCAUUUCCAGGGGUGGGAAUUUUUAUUUAAUAUGUGUCAUGAAUAAAGUUGUUUUUGAAA: 2.97
UCCUCAAGUCCUGUGCUACACAUCGUAUGUACCGAAUCGGGGCGGCGGCGGAAAGUAUUAUGUUACGCCGUUCGGAUCUGCACUUCCAGC: -1.02
GCAGGAAGUAAAAACAAAUGGAAAUGCUUCGGAUAGUGGCAGGGGUGGGGGUUGCUAAGGAAAGGGUGGGAUGGGAGGGGGUAAAGAGUU: 2.4
UCCUCAAGUCCUGUGCUACACAUCGUAUGUACCGAAUCGGUGGUGGGGUGGGAAAGUAUUAUGUUACGCCGUUCGGAUCUGCACUUCCAG: 0.327
AGUCCUGUGCUACACAUCGUAUGUACCGAAUCGGGCCCCGGGGCCCCGGGGCCCCGGAAAGUAUUAUGUUACGCCGUUCGGAUCUGCACU: -2.35
GUCCUGUGCUACACAUCGUAUGUACCGAAUCGGGGCCCCCGGGCCCCCGGGCCCCCGGAAAGUAUUAUGUUACGCCGUUCGGAUCUGCAC: -1.71

Sample 3 — target: CCND2, cyclin fold, Cln2 fusion (human); technique: yeast growth competition, sequencing; matrix: yeast; notes: weak parent motif; relative to: not given; direction: higher = stronger binding; quantity: normalised enrichment score
Parent: CDKN1B docking peptide (human); PSACRNLFGPVDH; partner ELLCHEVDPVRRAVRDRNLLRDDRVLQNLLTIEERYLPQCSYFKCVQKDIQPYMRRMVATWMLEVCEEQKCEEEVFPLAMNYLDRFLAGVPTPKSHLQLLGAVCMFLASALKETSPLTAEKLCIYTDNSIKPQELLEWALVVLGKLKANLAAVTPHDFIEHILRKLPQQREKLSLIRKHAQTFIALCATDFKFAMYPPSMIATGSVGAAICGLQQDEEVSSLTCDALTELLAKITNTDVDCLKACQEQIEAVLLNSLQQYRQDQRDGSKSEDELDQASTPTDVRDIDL
PSACRNTFGPVDH [L7T]: 0.0649
PSACRNLFGPADH [V11A]: -0.033
PSACYNLFGPVDH [R5Y]: 0.0791
PSACRNLFGYVDH [P10Y]: 0.462
PSICRNLFGPVDH [A3I]: 0.0662
PIACRNLFGPVDH [S2I]: 0.0955
PSACNNLFGPVDH [R5N]: -0.0579
PSAARNLFGPVDH [C4A]: 0.162
ISACRNLFGPVDH [P1I]: -0.183
PSACRNLFGPLDH [V11L]: 0.285
GSACRNLFGPVDH [P1G]: 0.356
PSACRNLFHPVDH [G9H]: 0.11
PSACRNLFGCVDH [P10C]: 0.0895
PSACRNLFGGVDH [P10G]: 0.287
PSAWRNLFGPVDH [C4W]: 0.268
PSACRNLFGPVKH [D12K]: 0.106
PSACRCLFGPVDH [N6C]: 0.247
PSAVRNLFGPVDH [C4V]: 0.0566
PSQCRNLFGPVDH [A3Q]: 0.384
PSECRNLFGPVDH [A3E]: -0.0264
PSACRNYFGPVDH [L7Y]: -0.185
PSACRNLFGPVNH [D12N]: 0.318
PSACRNLFGPDDH [V11D]: 0.0527
PSACRNLFGPQDH [V11Q]: 0.322
PSACRNLFGPEDH [V11E]: 0.281

Sample 4 — technique: RNA Bind-n-Seq; molecule type: RNA; matrix: in vitro; concentration: 365 nM; relative to: no-protein control; direction: higher = stronger binding; quantity: RBNS enrichment (R)
Target: RNA binding protein fox-1 homolog 2, RRM domain, GST-SBP tag (RBFOX2, Homo sapiens, UniProt O43251-10, residues 100-194)
Notes: natural RNA segment, single round, ends assumed
Constant ends, left off below: GGGAGUUCUACAGUCCGACGAUC … UGGAAUUCUCGGGUGCCAA
Residues (chain): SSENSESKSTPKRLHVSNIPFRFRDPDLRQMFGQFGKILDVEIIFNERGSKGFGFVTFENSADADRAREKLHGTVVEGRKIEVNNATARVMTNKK
ACUAAUGGAGUUUCAUUGUAACUGUCCUUUGUAAUUUAUAUAAAUGUAUUAUUUUCCUAUAUCCUUGGUUCUUUUCUGAUAAUUUACAGAUUUAGCUUUUCUUUUGUUAU: 1.06
CUAAUGUGCACCUGUGAGGUGUAACCCCCCGCUUUGGAGACGAGAUGGCUCUUGUUCAGUCAAGACCCCAGACUCUGGCCACAAAAAUGCCAUAAUGCCUGUUGGUAUUU: 0.414
AUAAUCAAAACUUUUUACAUGAGCAAAAUUCAGUAAGAAAUGGGGGAAGACAAAGGAAACGUCUUUGAGAAGCCCCUUCAUAUUUAUUUAUUUAUCUCUUCCUGAACCAU: 0.412
AGCUCACCCCUUUGGUGACUCAGAGUCCUUCUCAGAAGGAAACCCUGACUCCUGGGCCAUUUCCUAAUGGUACUGUAAGCCAAGUGGCUCGGCUUCUGCCUCUGUUUCCA: 0.21
UUUCUUUCAGCUGUUUGUUAGUUUUUGCUUUAUUUAAAGCAUAUUUAAGUUAUUUUAAUGUGGUUUAGGGGCAAAAUGUGCAGAUACUUCAUUUUUGUAAGAUAGAUUGU: 0.494
GUAGGAAAUGAGGGCAGACAGGAAGAGAGCAACAUGUCCAGCCCAUAGACUCCACAGAGAAUGGUGCUUUGUCCAAGGAAACCUGAGUUUCUGAUUGCCCAGGAGCAGUC: 1.71
ACUUCUAGAAUUACAUGGCUGCACCACUUCACCCAGCCUAUGUAGUUUUAUUUUAUAAAUGACACUGUCUUCCAGAAUUCCUUUCUUUAACAGAUUUCUUUUUCUUACUU: 0.698
CCCUUUUGGGGCAUGCACUUUCUUUCCUUUCUCAAAAUAAUGUUAUAUGUGGCCACACUGAUGUUCACCUUUACGUCCAGGGUCUUUGUGCCUUGUCUCUACUCCCUCUC: 0.492
